Measured values gathered from unrelated publications.
Lines come from different studies, so protocols differ.
Sequence of UniProt Q8N4C8 (whole entry, looked up): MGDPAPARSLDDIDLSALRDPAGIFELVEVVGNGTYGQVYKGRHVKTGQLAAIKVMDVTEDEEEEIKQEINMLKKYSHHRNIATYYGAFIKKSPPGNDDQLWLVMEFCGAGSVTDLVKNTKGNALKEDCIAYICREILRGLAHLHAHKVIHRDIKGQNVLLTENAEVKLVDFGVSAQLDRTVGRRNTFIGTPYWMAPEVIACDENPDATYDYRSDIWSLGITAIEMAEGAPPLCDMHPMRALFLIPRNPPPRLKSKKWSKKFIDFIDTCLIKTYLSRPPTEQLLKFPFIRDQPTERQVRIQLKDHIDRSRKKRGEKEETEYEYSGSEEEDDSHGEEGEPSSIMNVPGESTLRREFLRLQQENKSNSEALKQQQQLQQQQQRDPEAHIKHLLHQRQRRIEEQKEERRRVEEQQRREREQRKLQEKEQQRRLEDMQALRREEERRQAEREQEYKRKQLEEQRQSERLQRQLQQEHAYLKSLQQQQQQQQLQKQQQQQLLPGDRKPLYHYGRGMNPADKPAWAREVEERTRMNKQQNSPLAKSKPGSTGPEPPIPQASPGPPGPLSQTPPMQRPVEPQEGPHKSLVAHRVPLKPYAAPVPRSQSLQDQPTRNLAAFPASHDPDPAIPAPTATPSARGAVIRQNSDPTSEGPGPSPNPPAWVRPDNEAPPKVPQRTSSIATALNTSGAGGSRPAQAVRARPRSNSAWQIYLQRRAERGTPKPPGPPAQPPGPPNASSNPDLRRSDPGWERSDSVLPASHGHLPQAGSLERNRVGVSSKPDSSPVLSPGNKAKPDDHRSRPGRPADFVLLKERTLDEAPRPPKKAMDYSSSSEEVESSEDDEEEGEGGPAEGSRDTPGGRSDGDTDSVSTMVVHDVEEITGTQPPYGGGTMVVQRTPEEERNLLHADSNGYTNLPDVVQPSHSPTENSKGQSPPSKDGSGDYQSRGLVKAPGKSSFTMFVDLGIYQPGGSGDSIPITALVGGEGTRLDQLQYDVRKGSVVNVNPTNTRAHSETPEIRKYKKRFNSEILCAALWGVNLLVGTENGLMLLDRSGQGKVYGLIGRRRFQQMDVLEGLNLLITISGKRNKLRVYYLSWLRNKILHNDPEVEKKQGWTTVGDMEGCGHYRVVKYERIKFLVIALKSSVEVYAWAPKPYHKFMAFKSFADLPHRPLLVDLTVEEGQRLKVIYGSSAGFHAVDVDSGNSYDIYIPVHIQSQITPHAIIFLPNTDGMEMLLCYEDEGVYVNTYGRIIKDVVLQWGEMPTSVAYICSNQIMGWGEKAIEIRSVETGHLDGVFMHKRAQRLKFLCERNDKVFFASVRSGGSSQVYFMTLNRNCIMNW

SMILES | tested on | test | system | conditions | how to read | endpoint | value
Nc1ncc(-c2cc(-c3cnn(CC(F)(F)F)c3)ncc2F)nc1C(=O)NC1CNCC(F)C1 (stereo not drawn) | PCTK1 | KINOMEscan | – | 1 µM | baseline: DMSO control | remaining binding | 51%
CC1(C)[C@H](NC(=O)/C(=N\OCC(=O)N2CCC[C@@H]2C(=O)O)c2nsc(N)n2)C(=O)N1OS(=O)(=O)O | Providencia rettgeri | agar dilution | ATCC 31052, susceptible | – | – | MIC | 0.06 µg/mL
CNS(=O)(=O)Nc1nccc(Cc2c(C)c3ccc(Oc4ncccc4F)cc3oc2=O)c1F | MHH-PREB-1 | cell viability | – | 7 days | – | IC50 | > 1 µM
Cc1c(CN(C)C(=O)/C=C/c2cnc3c(c2)CC(N)C(=O)N3)oc2ccccc12 (stereo not drawn) | Klebsiella pneumoniae | broth microdilution | AR-0542 | – | – | MIC | 16 µg/mL
C#CCNC(=O)C1(O/N=C(\C(=O)N[C@@H]2C(=O)N(OS(=O)(=O)O)C2(C)C)c2csc(N)n2)CC1 | Citrobacter freundii | agar dilution | ATCC 43864 susceptible | – | – | MIC | 0.5 µg/mL
CNC(C)C1CCC(N)C(OC2C(N)CC(N)C(OC3OCC(C)(O)C(NC)C3O)C2O)O1 (stereo not drawn) | Gram-positive bacteria | – | seven strains | – | – | MIC | 2 µM
CN1CCCNC(=O)c2cccc(c2)C(=O)NCCCN(C)CCCNc2cccc3c2C(=O)c2cccc(c2C3=O)NCCC1 | SAS | RNA-Seq, measured: GSTZ1 mRNA | – | 1 µM, 6 h | baseline: untreated cells | log2 fold change | 1.27
CC(C)OC(=O)C12CSC(c3ccccc3)N1C(=O)C(=C(O)NC1CCCCC1)C2=O (stereo not drawn) | Streptomyces | bacterial growth, broth dilution | Mueller-Hinton broth | 24 h, 35 °C | – | MIC | 15.6 µg/mL
Cc1nn(-c2cccc(N)c2)c(=O)c2cnc(Nc3ccc(N4CCNCC4)cc3)nc12 | MINK1 (Homo sapiens, UniProt Q8N4C8) | kinase activity, inhibitor, SelectScreen kinase profiling | – | – | – | IC50 | > 10 µM
CC1(C)[C@H](NC(=O)/C(=N\OCC(=O)N2CCC(C(=O)O)C2)c2nsc(N)n2)C(=O)N1OS(=O)(=O)O (stereo partly drawn) | Citrobacter freundii | agar dilution | ATCC 43864, susceptible | – | – | MIC | 2 µg/mL
COC1CN([C@H]2CC[C@H]([C@@]3(C)Oc4c(Cl)cc(C(=O)NCc5c(SC)cc(C)[nH]c5=O)c(C)c4O3)CC2)C1 | – | RNA-seq, measured: SPATA7 mouse homolog | mouse, HT-1376 xenograft, whole blood | dose not given | baseline: vehicle | log2 fold change | 0.803
CCOc1c(NC(=O)c2ccc(NC(=O)c3ccc(NC(=O)[C@H](Cc4c[nH]nn4)NC(=O)c4ccc(NC(=O)/C(C)=C/c5ccc(O)cc5)cc4)cc3)c(OC)c2O)ccc(C(=O)O)c1O | Mycolicibacterium phlei | – | DSM 750 | – | – | MIC | 0.5 µg/mL
O=CCNCCOn1c(=O)n(OCCNCCO)c(=O)n(OCCNCCOn2c(=O)n(OCCNCCO)c(=O)n(OCCNCCO)c2=O)c1=O | Alternaria solani | microbial growth, broth dilution | – | – | – | MIC | 16 µg/mL
C=CC(=O)Nc1cccc(Cn2ncc3cnc(Nc4cnn(CCOC)c4)nc32)c1 | MST3 human | binding, KINOMEscan | – | 100 nM | lower = stronger binding | percent of control | 100%
N=C(N)NCCC[C@@H]1NC(=O)[C@H](CCCNC(=N)N)NC(=O)[C@@H](CCCNC(=N)N)NC(=O)[C@@H](CCCNC(=N)N)NC(=O)[C@@H](C(c2ccccc2)c2ccccc2)NC(=O)[C@@H](Cc2c[nH]c3ccccc23)NC(=O)[C@@H](C(c2ccccc2)c2ccccc2)NC1=O | Candida albicans | fungal growth | – | – | – | MIC | 16 µg/mL
COc1cc(C(=O)Nc2ccc(C(=O)O)c(O)c2)ccc1NC(=O)c1ccc(NC(=O)[C@H](Cc2c[nH]nn2)NC(=O)c2ccc(NC(=O)/C(C)=C/c3ccc(O)cc3)cc2)cc1 | Mycolicibacterium phlei | – | DSM 750 | – | – | MIC | 4 µg/mL
C=CCO/N=C(\C(=O)N[C@@H]1C(=O)N(OS(=O)(=O)O)C1(C)C)c1nsc(N)n1 | Providencia rettgeri | agar dilution | ATCC 31052, susceptible | – | – | MIC | ≤ 0.03 µg/mL
CC/C(O)=C1/C(=O)N2[C@@H](c3ccccc3)SC[C@]2(C(=O)OCc2ccccc2)C1=O | Streptomyces | bacterial growth, broth dilution | Mueller-Hinton broth | 24 h, 35 °C | – | MIC | 62.5 µg/mL
Cc1ncsc1-c1ccc(C(C)NC(=O)C2CC(O)CN2C(=O)C(NC(=O)CCCCCCCCCCN2CCCC(Nc3ncc(Cl)c(Nc4ccccc4S(=O)(=O)C(C)C)n3)C2)C(C)(C)C)cc1 (stereo not drawn) | 22Rv1 | RNA-seq, measured: ZNF280C mRNA | – | concentration not given | baseline: DMSO | log2 fold change | -1.52
O=C1C(=C(O)C=Cc2ccccc2)C(=O)C2(C(=O)OCc3ccccc3)CSC(c3ccccc3)N12 (stereo not drawn) | Streptomyces | bacterial growth, broth dilution | Mueller-Hinton broth | 24 h, 35 °C | – | MIC | 7.81 µg/mL
COc1cccc(OC)c1C(=O)N[C@@H]1C(=O)N2[C@@H]1SC(C)(C)[C@@H]2C(=O)O | Salmonella enterica serovar Typhimurium | – | 14028, Mueller-Hinton broth | 18 to 20 h, 37 °C | – | MIC | > 128 µM
CC(C)OCCOCc1ccc(OCC(O)CN(N=O)C(C)C)cc1 (stereo not drawn) | Salmonella typhimurium | Ames test | TA1535 | 1580 µg/plate, 30 % rat S9 | baseline: solvent control | revertant fold increase | 1.6 fold
COC(=O)C12CSC(c3ccccc3)N1C(=O)C(=C(O)NC1CCCCC1)C2=O (stereo not drawn) | Streptomyces | bacterial growth, broth dilution | Mueller-Hinton broth | 24 h, 35 °C | – | MIC | 62.5 µg/mL
C=CCO/N=C(\C(=O)N[C@@H]1C(=O)N(OS(=O)(=O)O)C1(C)C)c1csc(N)n1 | Providencia rettgeri | agar dilution | ATCC 31052, susceptible | – | – | MIC | ≤ 0.03 µg/mL

Repeated from above:
SMILES | tested on | test | system | conditions | how to read | endpoint | value
Cc1c(CN(C)C(=O)/C=C/c2cnc3c(c2)CC(N)C(=O)N3)oc2ccccc12 (stereo not drawn) | Klebsiella pneumoniae | broth microdilution | AR-0542 | – | – | MIC | 16 µg/mL
C#CCNC(=O)C1(O/N=C(\C(=O)N[C@@H]2C(=O)N(OS(=O)(=O)O)C2(C)C)c2csc(N)n2)CC1 | Citrobacter freundii | agar dilution | ATCC 43864 susceptible | – | – | MIC | 0.5 µg/mL
